Results from different studies.
Parts stem from different laboratories: compare values within a part only.

Sample 1
Target: Replicase polyprotein 1ab, polymerase (rep, Severe acute respiratory syndrome coronavirus 2, UniProt P0DTD1)
Observed: enzyme activity
Mode: inhibitor
Tested at: 20 µM
Endpoint: inhibition
N#Cc1cc(NC(=O)C(=O)O)c(Cl)c(NC(=O)C(=O)O)c1: 3.98%
CCc1cc(-c2n[nH]c(C)c2-c2ccc3c(c2)OCCO3)c(O)cc1O: 0.78%
c1ccc(-c2ccc(C(c3ccccc3)n3ccnc3)cc2)cc1 (stereo not shown): 1.08%
C[C@]12CCC(=O)C[C@@H]1CC[C@@H]1[C@@H]2CC[C@]2(C)[C@@H](O)CC[C@@H]12: -0.47%
Cc1nnc(SCC2=C(C(=O)O)N3C(=O)[C@@H](NC(=O)Cn4cnnn4)[C@H]3SC2)s1: 3.01%
COc1cc(C(=O)OCCCN2CCCN(CCCOC(=O)c3cc(OC)c(OC)c(OC)c3)CC2)cc(OC)c1OC: 1.92%
CC(C)(C)NC(=O)[C@@H]1C[C@@H]2CCCC[C@@H]2CN1C[C@@H](O)[C@H](Cc1ccccc1)NC(=O)[C@H](CC(N)=O)NC(=O)c1ccc2ccccc2n1: 6.84%
CC1(C)[C@H]2CC[C@]1(C)C(=O)C2: -0.72%
CC(=O)Nc1ccc(S(=O)(=O)c2ccc(NC(C)=O)cc2)cc1: -1.74%
Cn1cc(C(=O)[C@@H]2CCc3[nH]cnc3C2)c2ccccc21: 3.99%
O=C(OC(C(F)(F)F)C(F)(F)F)N1CCN(Cc2cccc(Oc3ccccc3)c2)CC1: 18%
CN1CCN(c2ccc(OC(F)(F)F)c(Nc3ncc4c(n3)-c3c(c(C(N)=O)nn3CCO)CC4)c2)CC1: -8.04%
CCN(CC)CCn1c(=O)c(Cc2ccc(OC)cc2)nc2ccccc21: -2.69%
COC(=O)CC[C@@H]1N=C(c2ccccn2)c2cc(Br)ccc2-n2c(C)cnc21: -2.64%

Sample 2
Target: Interferon regulatory factor 5, full length, phosphomimetic (IRF5, Homo sapiens, UniProt Q13568-2, residues 1-514, K96S/S451D/S453D/S456D/S462D)
Technique: protein-binding microarray
Form: double-stranded DNA, one strand shown
Sample: in vitro
Tested at: 250 nM
Notes: 60-bp whole probe
Together with: salmon DNA 0.4 mg/ml
Baseline: random background probes
Reading: higher = stronger binding
Endpoint: log fluorescence
GCCTAGCACTTAGCTTTCGACACTGGGTTAGTGCTAGTCTTGATTCGCTTGACGCTGCTG: 7.38 z-score
GCCTAGCACTTAGGTATCGGTCTCGGTCAGTGCTAGGTCTTGATTCGCTTGACGCTGCTG: 7.27 z-score
GCCTAGCACGACGATTTCGGGACTGGATACGTGCTAGTCTTGATTCGCTTGACGCTGCTG: 1.71 z-score
GCCTAGCACTTAGGTTTCGGACGGGGTTAGTGCTAGGTCTTGATTCGCTTGACGCTGCTG: 4.73 z-score

Sample 3
Target: Histone acetyltransferase KAT6A, winged helix 2, GST fusion (KAT6A, Homo sapiens, UniProt Q92794, residues 85-181)
Technique: protein binding microarray
Form: double-stranded DNA, one strand shown
Sample: in vitro
Tested at: not given
Notes: 8-mer, flanks averaged, mean of 2 arrays, mostly near background
Baseline: not given
Reading: higher = stronger binding
Endpoint: E-score
Construct (chain): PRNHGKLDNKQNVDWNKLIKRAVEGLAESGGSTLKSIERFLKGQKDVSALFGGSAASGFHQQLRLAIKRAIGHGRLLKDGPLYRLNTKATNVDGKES
CCACAACA: -0.0887
CGGTTAGC: -0.0407
GCGCGCAC: 0.176
CGCAGACG: 0.173
CGGACTCA: -0.101
GTCAAGTA: -0.191
ATCAACGC: 0.0245
GCAATTAC: -0.0994

Mixed results
Target: Replicase polyprotein 1ab, 3C-like proteinase (rep, Middle East respiratory syndrome-related coronavirus, UniProt K9N7C7)
Observed: enzyme activity
Tested at: 10 µM
O=c1c2ccccc2[se]n1-c1ccccc1 — inhibition: 14%
COc1cccc(C(=O)CCN[C@@H](C)[C@H](O)c2ccccc2)c1 — inhibition: 19%

A few entries again (sample 1):
COc1cc(C(=O)OCCCN2CCCN(CCCOC(=O)c3cc(OC)c(OC)c(OC)c3)CC2)cc(OC)c1OC: 1.92%
CC(C)(C)NC(=O)[C@@H]1C[C@@H]2CCCC[C@@H]2CN1C[C@@H](O)[C@H](Cc1ccccc1)NC(=O)[C@H](CC(N)=O)NC(=O)c1ccc2ccccc2n1: 6.84%
